Results collected from several papers.
Each line is one published result; not all experiments were run side by side. “And” joins repeats or separate records; there may be more than shown. Numbers after ± are the reported error.
Abcg2: Broad substrate specificity ATP-binding cassette transporter ABCG2 (Abcg2, Rattus norvegicus, UniProt Q80W57)
UniProt Q80W57, sequence (whole entry, looked up): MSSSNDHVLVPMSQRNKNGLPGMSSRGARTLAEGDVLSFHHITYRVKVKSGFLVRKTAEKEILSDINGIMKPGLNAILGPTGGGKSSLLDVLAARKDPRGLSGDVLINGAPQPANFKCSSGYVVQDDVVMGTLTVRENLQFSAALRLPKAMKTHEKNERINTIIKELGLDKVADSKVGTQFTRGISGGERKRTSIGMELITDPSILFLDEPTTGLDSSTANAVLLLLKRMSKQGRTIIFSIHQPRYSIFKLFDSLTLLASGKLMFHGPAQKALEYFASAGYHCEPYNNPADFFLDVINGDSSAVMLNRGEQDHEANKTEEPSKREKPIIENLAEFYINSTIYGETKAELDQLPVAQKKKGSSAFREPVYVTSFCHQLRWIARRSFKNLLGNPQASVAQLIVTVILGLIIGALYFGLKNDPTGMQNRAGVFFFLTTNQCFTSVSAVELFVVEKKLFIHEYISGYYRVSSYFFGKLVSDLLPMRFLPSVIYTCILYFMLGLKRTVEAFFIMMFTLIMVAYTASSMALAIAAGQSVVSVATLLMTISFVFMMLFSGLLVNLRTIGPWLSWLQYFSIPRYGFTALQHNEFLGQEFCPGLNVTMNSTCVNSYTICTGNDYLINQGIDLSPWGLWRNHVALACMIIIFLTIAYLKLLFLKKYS
SLC22A8: Organic anion transporter 3 (SLC22A8, Homo sapiens, UniProt Q8TCC7)
UniProt Q8TCC7, sequence (whole entry, looked up): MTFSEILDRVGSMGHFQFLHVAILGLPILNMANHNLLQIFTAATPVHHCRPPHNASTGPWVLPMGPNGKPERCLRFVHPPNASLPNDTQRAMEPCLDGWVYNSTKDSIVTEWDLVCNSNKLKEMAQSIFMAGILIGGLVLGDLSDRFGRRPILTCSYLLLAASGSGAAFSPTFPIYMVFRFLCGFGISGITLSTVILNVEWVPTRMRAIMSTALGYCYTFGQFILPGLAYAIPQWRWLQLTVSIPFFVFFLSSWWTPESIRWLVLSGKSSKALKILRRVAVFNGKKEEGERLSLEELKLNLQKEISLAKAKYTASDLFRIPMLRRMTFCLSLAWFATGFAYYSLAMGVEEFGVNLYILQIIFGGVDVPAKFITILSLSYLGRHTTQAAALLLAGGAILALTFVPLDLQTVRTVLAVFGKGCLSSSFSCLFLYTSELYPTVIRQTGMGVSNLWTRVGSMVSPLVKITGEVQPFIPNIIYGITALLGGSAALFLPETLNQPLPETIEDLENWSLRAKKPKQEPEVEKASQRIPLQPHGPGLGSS
CYP2C9: Cytochrome P450 2C9 (CYP2C9, Homo sapiens, UniProt P11712)
UniProt P11712, sequence (whole entry, looked up): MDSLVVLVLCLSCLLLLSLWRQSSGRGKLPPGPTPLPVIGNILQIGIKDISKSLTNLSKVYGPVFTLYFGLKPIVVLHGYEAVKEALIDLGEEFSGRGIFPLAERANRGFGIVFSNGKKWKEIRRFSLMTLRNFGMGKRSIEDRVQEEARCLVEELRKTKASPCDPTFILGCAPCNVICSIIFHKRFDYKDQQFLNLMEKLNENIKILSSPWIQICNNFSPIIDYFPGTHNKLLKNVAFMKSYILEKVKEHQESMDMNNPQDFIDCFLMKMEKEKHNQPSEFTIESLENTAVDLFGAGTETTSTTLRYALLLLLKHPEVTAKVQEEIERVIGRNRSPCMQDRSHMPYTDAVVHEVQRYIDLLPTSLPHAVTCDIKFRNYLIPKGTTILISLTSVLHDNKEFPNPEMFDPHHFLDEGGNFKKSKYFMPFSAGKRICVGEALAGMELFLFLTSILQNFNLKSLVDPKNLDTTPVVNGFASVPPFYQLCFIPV
CYP2E1: Cytochrome P450 2E1 (CYP2E1, Homo sapiens, UniProt P05181)
UniProt P05181, sequence (whole entry, looked up): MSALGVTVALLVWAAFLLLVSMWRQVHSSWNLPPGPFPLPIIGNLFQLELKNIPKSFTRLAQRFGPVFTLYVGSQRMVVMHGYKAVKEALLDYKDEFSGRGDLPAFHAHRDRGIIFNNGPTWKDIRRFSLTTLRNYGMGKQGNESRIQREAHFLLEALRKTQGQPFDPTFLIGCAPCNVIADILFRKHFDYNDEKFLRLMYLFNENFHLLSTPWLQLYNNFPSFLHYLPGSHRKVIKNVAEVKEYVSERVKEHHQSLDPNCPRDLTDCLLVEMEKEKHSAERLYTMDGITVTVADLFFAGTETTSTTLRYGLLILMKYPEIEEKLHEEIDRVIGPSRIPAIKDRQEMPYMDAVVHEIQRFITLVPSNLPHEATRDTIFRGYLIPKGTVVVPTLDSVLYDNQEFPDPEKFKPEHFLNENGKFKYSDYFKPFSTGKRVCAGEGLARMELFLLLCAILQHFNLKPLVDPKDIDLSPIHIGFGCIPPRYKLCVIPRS
Melanocortin receptor 5: Melanocortin receptor 5 (Mus musculus, UniProt P41149)
UniProt P41149, sequence (whole entry, looked up): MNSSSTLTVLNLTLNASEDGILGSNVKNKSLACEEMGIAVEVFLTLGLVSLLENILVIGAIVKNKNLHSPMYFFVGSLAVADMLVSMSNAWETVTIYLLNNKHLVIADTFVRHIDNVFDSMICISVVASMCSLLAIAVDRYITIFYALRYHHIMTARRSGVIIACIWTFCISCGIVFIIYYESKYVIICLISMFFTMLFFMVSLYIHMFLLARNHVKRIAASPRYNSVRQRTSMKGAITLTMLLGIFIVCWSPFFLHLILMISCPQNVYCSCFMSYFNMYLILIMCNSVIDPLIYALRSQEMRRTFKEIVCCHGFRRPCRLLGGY
CYP2C19: Cytochrome P450 2C19 (CYP2C19, Homo sapiens, UniProt P33261)
UniProt P33261, sequence (whole entry, looked up): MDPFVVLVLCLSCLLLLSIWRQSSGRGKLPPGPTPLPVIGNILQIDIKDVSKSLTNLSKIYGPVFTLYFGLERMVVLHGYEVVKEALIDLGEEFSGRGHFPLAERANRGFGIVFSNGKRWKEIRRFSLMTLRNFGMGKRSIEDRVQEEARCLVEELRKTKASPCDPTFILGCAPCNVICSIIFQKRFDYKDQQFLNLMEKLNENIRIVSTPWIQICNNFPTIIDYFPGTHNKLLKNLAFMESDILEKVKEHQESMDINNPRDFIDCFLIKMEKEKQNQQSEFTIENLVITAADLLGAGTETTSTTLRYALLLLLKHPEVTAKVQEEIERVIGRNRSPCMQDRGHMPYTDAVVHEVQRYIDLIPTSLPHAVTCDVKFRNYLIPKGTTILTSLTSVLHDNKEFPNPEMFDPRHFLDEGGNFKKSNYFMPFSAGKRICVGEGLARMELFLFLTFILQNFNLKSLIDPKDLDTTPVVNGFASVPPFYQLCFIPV
UniProt O15244, sequence (whole entry, looked up): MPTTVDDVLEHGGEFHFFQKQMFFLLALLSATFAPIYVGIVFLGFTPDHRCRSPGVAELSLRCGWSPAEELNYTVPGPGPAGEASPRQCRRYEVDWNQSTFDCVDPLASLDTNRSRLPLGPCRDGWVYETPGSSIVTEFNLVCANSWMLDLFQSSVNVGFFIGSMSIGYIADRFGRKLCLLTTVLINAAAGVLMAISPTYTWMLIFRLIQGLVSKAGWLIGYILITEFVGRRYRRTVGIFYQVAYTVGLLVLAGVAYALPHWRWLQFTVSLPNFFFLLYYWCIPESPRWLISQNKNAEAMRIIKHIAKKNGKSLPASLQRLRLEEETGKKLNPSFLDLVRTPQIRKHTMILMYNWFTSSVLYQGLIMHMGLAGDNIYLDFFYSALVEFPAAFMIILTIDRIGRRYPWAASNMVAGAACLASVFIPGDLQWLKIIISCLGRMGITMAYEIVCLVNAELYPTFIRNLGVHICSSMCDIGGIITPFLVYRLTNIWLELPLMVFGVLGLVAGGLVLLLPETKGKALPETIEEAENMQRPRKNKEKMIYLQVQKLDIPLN
UniProt O15245, sequence (whole entry, looked up): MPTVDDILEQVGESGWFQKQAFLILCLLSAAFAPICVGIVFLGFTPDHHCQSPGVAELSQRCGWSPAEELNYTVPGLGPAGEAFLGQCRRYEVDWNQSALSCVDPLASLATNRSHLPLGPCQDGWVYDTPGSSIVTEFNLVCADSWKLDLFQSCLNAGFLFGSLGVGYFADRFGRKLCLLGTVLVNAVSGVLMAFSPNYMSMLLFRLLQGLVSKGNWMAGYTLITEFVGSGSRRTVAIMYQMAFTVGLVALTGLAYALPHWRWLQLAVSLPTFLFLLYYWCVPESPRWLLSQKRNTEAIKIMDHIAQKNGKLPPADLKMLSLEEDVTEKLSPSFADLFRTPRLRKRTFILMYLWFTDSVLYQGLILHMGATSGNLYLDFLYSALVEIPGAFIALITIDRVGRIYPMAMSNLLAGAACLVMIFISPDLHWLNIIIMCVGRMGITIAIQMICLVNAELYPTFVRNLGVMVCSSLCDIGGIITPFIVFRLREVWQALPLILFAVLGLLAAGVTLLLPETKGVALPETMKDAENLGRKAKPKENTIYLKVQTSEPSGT
UniProt P11509, sequence (whole entry, looked up): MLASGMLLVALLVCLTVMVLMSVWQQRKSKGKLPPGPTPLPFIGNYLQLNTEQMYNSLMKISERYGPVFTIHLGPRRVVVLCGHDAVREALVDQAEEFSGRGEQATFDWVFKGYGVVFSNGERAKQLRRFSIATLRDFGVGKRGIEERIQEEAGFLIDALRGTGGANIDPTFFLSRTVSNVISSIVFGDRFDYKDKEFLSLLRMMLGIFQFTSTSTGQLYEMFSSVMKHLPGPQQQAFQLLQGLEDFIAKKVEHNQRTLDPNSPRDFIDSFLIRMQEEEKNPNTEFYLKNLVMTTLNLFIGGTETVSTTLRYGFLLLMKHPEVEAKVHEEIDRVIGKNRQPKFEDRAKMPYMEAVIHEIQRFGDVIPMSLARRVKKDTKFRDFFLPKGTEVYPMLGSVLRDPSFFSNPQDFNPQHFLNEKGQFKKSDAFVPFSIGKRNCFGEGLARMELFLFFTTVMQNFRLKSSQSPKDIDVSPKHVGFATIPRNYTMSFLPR

`6-carboxyfluorescein` has a Km of 84.1 ± 31.8 µM (SLCO2A1 (Homo sapiens, UniProt Q92959); uptake, substrate; HEK293F expressing SLCO2A1; pH 6.0).
CC[C@H](C)[C@H](NC(=O)[C@H](CCC(=O)O)NC(=O)[C@H](CO)NC(=O)[C@@H](NC(=O)[C@@H](N)CO)C(C)C)C(=O)N[C@@H](CCC(N)=O)C(=O)N[C@@H](CC(C)C)C(=O)N[C@@H](CCSC)C(=O)N[C@@H](Cc1cnc[nH]1)C(=O)N[C@@H](CC(N)=O)C(=O)N[C@@H](CC(C)C)C(=O)NCC(=O)N[C@@H](CCCCN)C(=O)N[C@@H](Cc1cnc[nH]1)C(=O)N[C@@H](CC(C)C)C(=O)N[C@@H](CC(N)=O)C(=O)N[C@@H](CO)C(=O)N[C@@H](CCSC)C(=O)N[C@@H](CCC(=O)O)C(=O)N[C@@H](CCCN=C(N)N)C(=O)N[C@H](C(=O)N[C@@H](CCC(=O)O)C(=O)N[C@@H](Cc1c[nH]c2ccccc12)C(=O)N[C@@H](CC(C)C)C(=O)N[C@@H](CCCN=C(N)N)C(=O)N[C@@H](CCCCN)C(=O)N[C@@H](CCCCN)C(=O)N[C@@H](CC(C)C)C(=O)N[C@@H](CCC(N)=O)C(=O)N[C@@H](CC(=O)O)C(=O)N[C@H](C(=O)N[C@@H](Cc1cnc[nH]1)C(=O)N[C@@H](CC(N)=O)C(=O)N[C@@H](Cc1ccccc1)C(=O)O)C(C)C)C(C)C: “remaining intact compound” 13 ± 1% (chymotrypsin (bovine pancreas); proteolytic degradation, HPLC-UV; 0.5 mg/mL, 1.0 h, pH 6.5, 37 °C, with: chymotrypsin with soybean trypsin inhibitor).
Under “Cmax fold increase”, CC[C@@]1(O)C(=O)OCc2c1cc1n(c2=O)Cc2cc3c(CN(C)C)c(O)ccc3nc2-1 is recorded as 5 fold (Abcg2; substrate; rat, plasma; oral, dose not given, with: elacridar constant infusion; reference: with over without elacridar).
The intrinsic clearance of O=C(O[C@H]1[C@@H]2C=CO[C@@H](O[C@@H]3O[C@H](CO)[C@@H](O)[C@H](O)[C@H]3O)[C@@H]2[C@@]2(CO)O[C@@H]12)c1ccc(O)cc1 is reported as 1.11 µL/min (SLC22A8; uptake, substrate; HEK293 overexpressing SLC22A8; 10 min).
The IC50 of CC1=C(CO)C(=O)O[C@@H]([C@@H](C)[C@H]2CC[C@H]3[C@@H]4C[C@H]5O[C@]56[C@@H](O)C=CC(=O)[C@]6(C)[C@H]4CC[C@]23C)C1 is reported as 4.47 µM (C2C12 myotubes; NF-κB reporter gene, inhibitor; 24 h, with: TNF-α 10 ng/mL).
O=C(O)CCCCCCCCCCCCC(=O)O — result for “trough plasma concentration”: 91.3 nM (OATP1B1; human, plasma; concentration not given, 12 h after first cyclosporine dose, genotype CC, with: oral cyclosporine plus pravastatin).
With Cc1noc(C)c1Cn1cc(N2C(=O)CN(Cc3cccc(O)c3)C2=O)cn1 the inhibition was 34% (CYP2C9; enzyme activity, inhibitor, fluorescence; Sf9; 10 µM).
The AUC(0-t) of O=C(O)c1cc(/N=N/c2ccc(S(=O)(=O)Nc3ccccn3)cc2)ccc1O is reported as 327 ± 36 ng·h/mL (Abcg2; substrate; Sprague-Dawley rat, male, plasma; oral, 2 mg/kg, with: 3,4'-dimethoxyflavone 5 mg/kg).
With C=C the Km was 13 ± 1 µM (CYP2E1; substrate, headspace gas uptake, item: ethylene oxide formation; human, pooled liver microsomes).
With CC1=N[C@]2(C(=O)CO)[C@@H](C[C@H]3[C@@H]4C[C@@H](O)C5=CC(=O)C=C[C@]5(C)[C@H]4[C@@H](O)C[C@@]32C)O1 the IC50 was over 50 µM (CYP2C9; enzyme activity, inhibitor; human, liver microsomes; with preincubation).
CCC/C=C/C=O gave a Ki of 6.7 ± 0.2 µM (CYP2E1; enzyme activity, competitive inhibitor; human liver S9; with: p-nitrophenol substrate).
The IC50 of Cc1ccccc1C(=O)Nc1ccc(C(=O)Nc2ccc(Cl)cc2C(=O)CCC(=O)O)c(C)c1 is reported as 0.425 µM (SLC22A8; estrone 3-sulfate transport; HEK293 overexpressing OAT3).
The Ki of Nc1ncnc2c1ncn2[C@@H]1O[C@H](COP(=O)(O)OP(=O)(O)O)[C@@H](O)[C@H]1O is reported as 20 ± 3 µM (Lrrk2 (Mus musculus, UniProt Q5S006); enzyme activity, inhibitor, TR-FRET; Ki,e, with: ATP varied, PLK-peptide substrate).
With CSCC[C@H](NC(=O)[C@H](C)NC(=O)[C@H](Cc1ccc(O)cc1)NC(=O)[C@H](CO)NC(C)=O)C(=O)N[C@@H](CCC(=O)O)C(=O)N[C@@H](Cc1c[nH]cn1)C(=O)N[C@@H](Cc1ccccc1)C(=O)N[C@@H](CCCNC(=N)N)C(=O)N[C@@H](Cc1c[nH]c2ccccc12)C(=O)NCC(=O)N[C@@H](CCCCN)C(=O)N1CCC[C@H]1C(=O)N[C@H](C(N)=O)C(C)C the EC50 was 9.84 ± 4.31 nM (Melanocortin receptor 5).
With O=c1[nH]c(=O)c2[nH]cnc2[nH]1 the dehydrogenase activity was 1.72 ± 0.37 nmol/min/mg protein (Xdh (Mus musculus, UniProt Q00519); substrate; LCN mouse liver cytosol; 50 µM, pH 7.8).
With N=C(N)NC(=N)NC1Cc2ccccc2C1 the IC50 was 22.1 µM and 22 µM (SLC22A1 (Homo sapiens, UniProt O15245); transporter uptake, inhibitor, radiometric).
O=C(O)CCCCCCCCCCCCCCC(=O)O: “trough plasma concentration” 84.6 nM (OATP1B1; human, plasma; concentration not given, 12 h after first cyclosporine dose, genotype TT, with: oral cyclosporine plus pravastatin).
Cc1coc2c1CC[C@@H](C)C2 — result for “spectrally active P450 remaining”: 36 ± 4.6% (Cytochrome P450 2A6 (CYP2A6, Homo sapiens, UniProt P11509); inactivator, reduced CO spectrum; reconstituted enzyme; 20 µM, 10 min, 30 °C; reference: without NADPH).
O=c1[nH]c(=O)c(Cc2cccc(C(F)(F)F)c2)c([C@H]2CC[C@H](c3ccccc3)CC2)[nH]1 gave an AUC(0-last) of 6140 ng·h/mL (CYP2C19; human, plasma; oral, 600 mg, day 1, geometric mean).
O=C1Nc2ccc(Cl)cc2[C@@](C#CC2CC2)(C(F)(F)F)O1 gave an inhibition of 35% (CYP2C19; enzyme activity, inhibitor; human, liver microsomes; 10 µM, pH 7.4).
CSCC[C@H](NC(=O)[C@H](CO)NC(=O)[C@H](Cc1ccc(O)cc1)NC(=O)[C@H](CO)NC(C)=O)C(=O)N[C@@H](CCC(=O)O)C(=O)N[C@@H](Cc1c[nH]cn1)C(=O)N[C@@H](Cc1ccccc1)C(=O)N[C@@H](C)C(=O)N[C@@H](Cc1c[nH]c2ccccc12)C(=O)NCC(=O)N[C@@H](CCCCN)C(=O)N1CCC[C@H]1C(=O)N[C@H](C(N)=O)C(C)C has an EC50 of 90 ± 20 nM (Melanocortin receptor 5).
With O=C(/C=C/c1ccc(O)c2c1[C@H](C(=O)O[C@H](Cc1ccc(O)c(O)c1)C(=O)O)[C@@H](c1ccc(O)c(O)c1)O2)O[C@H](Cc1ccc(O)c(O)c1)C(=O)O the inhibition was over 50% (SLC22A8; transporter uptake, inhibitor; HEK293; 100 µM).
The IC50 of N=C(N)NC(=N)NCC(c1ccccc1)c1ccccc1 is reported as 53 µM and 52.7 µM (SLC22A2 (Homo sapiens, UniProt O15244); transporter uptake, inhibitor, radiometric).
CN1CCN(CCCN2c3ccccc3Sc3ccc(C(F)(F)F)cc32)CC1 gave an inhibition of 68% (UGT1A4 (Homo sapiens, UniProt P22310); nicotine glucuronidation, inhibitor; microsomes of transfected HEK293; 100 µM, pH 7.4, with: nicotine).
For C=CC(=O)OCC, peptide depletion read “inactive” (cysteine peptide Ac-RFAACAA-COOH; DPRA RapidFire-MS/MS; 24 h, pH 7.5, with: 5.0 µM cysteine peptide).
With CCCCCCCC/C=C/C=O the Ki was 3.4 ± 0.1 µM (CYP2E1; enzyme activity, competitive inhibitor; human liver S9; with: p-nitrophenol substrate).
With COc1cc(CCc2cnc3ccn(S(=O)(=O)c4cn(C)cn4)c3n2)cc(OC)c1 the inhibition was 7% (CYP2C19; enzyme activity, inhibitor; human, liver microsomes; 10 µM, 20 min, pH 7.4).
With CCC=CC=O the Ki was 13 ± 1 µM (CYP2E1; enzyme activity, competitive inhibitor; human liver S9; with: p-nitrophenol substrate).
For O=C(O)C(=O)O, IC50 read “inactive” (cysteine peptide Ac-RFAACAA-COOH; peptide depletion, DPRA RapidFire-MS/MS; 24 h, pH 7.5, room temperature, with: 5.0 µM cysteine peptide).
O[C@@H](CS)[C@@H](O)CS (racemic) gave an Amax of 0.39 µM (CYP2E1; spectrophotometric titration, item: bis-thiolate complex; enzyme-enriched human liver microsomes; 375 pmol enzyme per mg protein).
With CCCCCC=O the Ki was 26 ± 2 µM (CYP2E1; competitive inhibitor; human liver S9; with: p-nitrophenol substrate).

A few entries again:
O[C@@H](CS)[C@@H](O)CS (racemic) gave an Amax of 0.39 µM (CYP2E1; spectrophotometric titration, item: bis-thiolate complex; enzyme-enriched human liver microsomes; 375 pmol enzyme per mg protein).
Under “Cmax fold increase”, CC[C@@]1(O)C(=O)OCc2c1cc1n(c2=O)Cc2cc3c(CN(C)C)c(O)ccc3nc2-1 is recorded as 5 fold (Abcg2; substrate; rat, plasma; oral, dose not given, with: elacridar constant infusion; reference: with over without elacridar).
With CCC=CC=O the Ki was 13 ± 1 µM (CYP2E1; enzyme activity, competitive inhibitor; human liver S9; with: p-nitrophenol substrate).
